Measured values of several laboratories.

[O-][N+]1=C(c2ccsc2)C2=NCCCN2c2ccccc21  MIC (Bacteroides spp. and Parabacteroides distasonis): 0.25 to 1 µg/mL
CC(=O)N[C@@H](CC(C)C)C(=O)N[C@H]1CSSC[C@@H](C(=O)N2CCC[C@H]2C(N)=O)NC(=O)[C@H](CCCCN)NC(=O)[C@H](C(C)C)NC(=O)[C@H](CCCCN)NC(=O)CNC(=O)[C@H](CC(C)C)NC(=O)[C@H](Cc2ccccc2)NC(=O)[C@H](CCCCN)NC(=O)[C@H](CC(C)C)NC(=O)[C@H](CCC(=O)O)NC(=O)[C@H](Cc2ccccc2)NC(=O)[C@H](CCCNC(=N)N)NC(=O)[C@H](CCCCN)NC(=O)[C@H](CC(C)C)NC(=O)[C@H](CC(=O)O)NC(=O)[C@@H]2CCCN2C(=O)[C@H](CCCCN)NC(=O)[C@H](C(C)C)NC(=O)[C@H](CCCCN)NC(=O)[C@H](CCCCN)NC(=O)[C@H](CCCCN)NC1=O  MIC (Shigella flexneri; broth dilution; CGMCC strain; 24 h): 1.25 to 2.5 µM
O=C(c1ccccc1O)c1[nH]c(Cl)c(Cl)c1-n1c(C(=O)c2ccccc2O)cc(Cl)c1Cl  MIC (Klebsiella aerogenes; microbial growth; ATCC35029): > 64 µM
CN[C@H](CC(C)C)C(=O)N[C@H]1C(=O)N[C@@H](CC(N)=O)C(=O)N[C@H]2C(=O)N[C@H]3C(=O)N[C@H](C(=O)N[C@H](C(=O)O)c4cc(O)cc(O)c4-c4cc3ccc4O)[C@H](O)c3ccc(c(Cl)c3)Oc3cc2cc(c3O[C@@H]2O[C@H](CO)[C@@H](O)[C@H](O)[C@H]2O[C@H]2C[C@](C)(NCc3ccc(OCc4cn(CCCCC(=O)N[C@H](C(=O)N[C@@H](CCN)C(=O)N[C@H]5CCNC(=O)[C@H]([C@@H](C)O)NC(=O)[C@H](CCN)NC(=O)[C@H](CCN)NC(=O)[C@H](CC(C)C)NC(=O)[C@@H](CC(C)C)NC(=O)[C@H](CCN)NC5=O)[C@@H](C)O)nn4)c(OC)c3)[C@H](O)[C@H](C)O2)Oc2ccc(cc2Cl)[C@H]1O  MIC (Enterococcus faecalis; broth microdilution; vancomycin-resistant, tryptic soy broth; 20 to 24 h, 37 °C, 0.002% polysorbate 80): 128 µg/mL
CC(C)Oc1ccc(B(O)O)c(F)n1  MIC (Klebsiella aerogenes; bacterial growth; AmpC overproducer clinical isolate; without cefotaxime): 2050 µg/mL
CCCCCCCCCCCCCC(=O)N[C@H]1C(=O)N[C@@H](CN)C(=O)N[C@@H](CO)C(=O)N[C@@H](Cc2ccc(O)cc2)C(=O)O[C@H]1C  MIC (Staphylococcus aureus; SH1000; with: sphingomyelin, molar ratio 0.5): 2 µg/mL
COc1ccc(C2=[N+]([O-])c3ccccc3N3CC(C)(C)CN=C23)cc1  MIC (Bacteroides spp. and Parabacteroides distasonis): 0.125 to 1 µg/mL
CC(=O)N[C@@H](CC(C)C)C(=O)N[C@H]1CSSC[C@@H](C(=O)N2CCC[C@H]2C(N)=O)NC(=O)[C@H]([C@@H](C)O)NC(=O)[C@H](C(C)C)NC(=O)[C@H]([C@@H](C)O)NC(=O)CNC(=O)[C@H](CCCCN)NC(=O)[C@H](Cc2ccccc2)NC(=O)[C@H](Cc2ccc(O)cc2)NC(=O)[C@H](CCCCN)NC(=O)[C@H](CCC(=O)O)NC(=O)[C@H](Cc2ccccc2)NC(=O)[C@H](CCCNC(=N)N)NC(=O)[C@H](CCCCN)NC(=O)[C@H](CC(C)C)NC(=O)[C@H](CC(=O)O)NC(=O)[C@@H]2CCCN2C(=O)[C@H](CCCCN)NC(=O)[C@H](C(C)C)NC(=O)[C@H](CCCCN)NC(=O)[C@H](CCCCN)NC(=O)[C@H]([C@@H](C)O)NC1=O  MIC (Corynebacterium glutamicum; broth dilution; CGMCC strain; 24 h): 5 to 10 µM
C#CCOc1ccc(CN[C@@]2(C)C[C@H](O[C@H]3[C@H](Oc4c5cc6cc4Oc4ccc(cc4Cl)[C@@H](O)[C@@H](NC(=O)[C@@H](CC(C)C)NC)C(=O)N[C@@H](CC(N)=O)C(=O)N[C@H]6C(=O)N[C@H]4C(=O)N[C@H](C(=O)N[C@H](C(=O)N[C@@H](CCCNC(=N)N)C(N)=O)c6cc(O)cc(O)c6-c6cc4ccc6O)[C@H](O)c4ccc(c(Cl)c4)O5)O[C@H](CO)[C@@H](O)[C@@H]3O)O[C@@H](C)[C@H]2O)cc1OC  MIC (Enterococcus faecalis; broth microdilution; vancomycin-resistant): 18 µM
CC(=O)N[C@@H](CC(C)C)C(=O)N[C@H]1CSSC[C@@H](C(=O)N2CCC[C@H]2C(N)=O)NC(=O)[C@H]([C@@H](C)O)NC(=O)[C@H](C(C)C)NC(=O)[C@H]([C@@H](C)O)NC(=O)CNC(=O)[C@H](CC(C)C)NC(=O)[C@H](Cc2ccccc2)NC(=O)[C@H](Cc2ccc(O)cc2)NC(=O)[C@H](CC(C)C)NC(=O)[C@H](CCCCN)NC(=O)[C@H](Cc2ccccc2)NC(=O)[C@H](CCCNC(=N)N)NC(=O)[C@H](CCCCN)NC(=O)[C@H](CC(C)C)NC(=O)[C@H](CCCCN)NC(=O)[C@@H]2CCCN2C(=O)[C@H](CCCCN)NC(=O)[C@H](C(C)C)NC(=O)[C@H](CC(N)=O)NC(=O)[C@H](Cc2ccc(O)cc2)NC(=O)[C@H]([C@@H](C)O)NC1=O  MIC (Shigella flexneri; broth dilution; CGMCC strain; 24 h): 2.5 to 5 µM
CC1(C)C(NC(=O)C(=NOC2(C(=O)O)CC2)c2csc(N)n2)C(=O)N1OS(=O)(=O)O (stereo not shown)  MIC (Klebsiella pneumoniae; agar dilution; 09-20, NDM-1): 0.25 µg/mL
CC(=O)N[C@@H](CC(C)C)C(=O)N[C@H]1CSSC[C@@H](C(=O)N2CCC[C@H]2C(N)=O)NC(=O)[C@H]([C@@H](C)O)NC(=O)[C@H](C(C)C)NC(=O)[C@H]([C@@H](C)O)NC(=O)CNC(=O)[C@H](CC(C)C)NC(=O)[C@H](Cc2ccccc2)NC(=O)[C@H](Cc2ccc(O)cc2)NC(=O)[C@H](CC(C)C)NC(=O)[C@H](CCCCN)NC(=O)[C@H](Cc2ccccc2)NC(=O)[C@H](CCCNC(=N)N)NC(=O)[C@H](CCC(N)=O)NC(=O)[C@H](CC(C)C)NC(=O)[C@H](CCCCN)NC(=O)[C@@H]2CCCN2C(=O)[C@H](CCCCN)NC(=O)[C@H](C(C)C)NC(=O)[C@H](CCCCN)NC(=O)[C@H](Cc2ccc(O)cc2)NC(=O)[C@H]([C@@H](C)O)NC1=O  MIC (Shigella flexneri; broth dilution; CGMCC strain; 24 h): 1.25 to 2.5 µM
[O-][N+]1=C(c2ccccc2)C2=NCCCN2c2ncccc21  MIC (Bacteroides spp. and Parabacteroides distasonis): 0.06 to 0.125 µg/mL
CC[C@H](C)[C@H](NC(=O)[C@H](CCCCN)NC(=O)[C@H](CCCCN)NC(=O)[C@H](Cc1ccccc1)NC(=O)[C@H](Cc1ccccc1)NC(=O)[C@H](CCCCN)NC(=O)[C@H](CCCCN)NC(=O)[C@H](Cc1ccccc1)NC(=O)[C@H](CCCNC(=N)N)NC(=O)[C@@H](N)CCCCN)C(=O)N[C@@H](CCCCN)C(=O)N[C@@H](CCCCN)C(=O)N[C@@H](CO)C(=O)N[C@H](C(=O)N[C@@H](CCCCN)C(=O)N[C@@H](CCCCN)C(=O)N[C@@H](CCCNC(=N)N)C(=O)N[C@H](C(=O)N[C@@H](CCCCN)C(=O)N[C@@H](CCCCN)C(=O)N[C@@H](CC(C)C)C(=O)N[C@@H](Cc1ccccc1)C(=O)N[C@@H](CCCCN)C(=O)N[C@@H](CCCCN)C(=O)N1CCC[C@H]1C(=O)N[C@@H](CCCNC(=N)N)C(=O)N[C@H](C(=O)N[C@H](C(=O)N1CCC[C@H]1C(=O)N[C@H](C(=O)N[C@@H](CO)C(=O)N[C@H](C(=O)N1CCC[C@H]1C(=O)N[C@@H](Cc1ccccc1)C(=O)O)[C@@H](C)CC)[C@@H](C)CC)[C@@H](C)CC)C(C)C)C(C)C)C(C)C  MIC (Pseudomonas aeruginosa; P1; 20 h, with: 150 mM NaCl): 4 µg/mL
C[N+]1=C2C(c3ccccc3)=[N+]([O-])c3ccccc3N2CCC1  MIC (Bacteroides fragilis): 0.5 to 4 µg/mL
CC(C)CCCCCCCCC/C=C/C(=O)N[C@@H](CC(N)=O)C(=O)N[C@H]1CNC(=O)[C@@H]2CCCN2C(=O)[C@H](C(C)C)NC(=O)[C@@H](CN)NC(=O)CNC(=O)[C@H](CC(=O)O)NC(=O)CNC(=O)[C@H](CC(=O)O)NC(=O)[C@H](CC(=O)O)NC(=O)[C@H]2CCCCN2C1=O  MIC (Enterococcus; broth microdilution; VRE 155, Mueller-Hinton broth, Mg2+ 10 mg/L; 16 h, with: Ca2+ 10 mM): 0.5 µg/mL
COc1ccc(C2=[N+]([O-])c3ccccc3N3CCN=C23)cc1  MIC (Bacteroides spp. and Parabacteroides distasonis): 0.06 to 0.125 µg/mL
CCCCCC(=O)NCCCC[C@H](NC(=O)CCCCC)C(=O)N[C@@H](CCCCNC(=O)CCCCC)C(=O)NCC(=O)NCC(=O)NCC(=O)N[C@@H](CS)C(=O)N[C@@H](CCCNC(=N)N)C(=O)N[C@@H](CCCCN)C(=O)N1CCC[C@H]1C(=O)N[C@@H](CS)C(=O)N[C@@H](CCCNC(=N)N)C(=O)N[C@@H](CCCCN)C(=O)N1CCC[C@H]1C(N)=O  MIC (Candida parapsilosis; broth microdilution; CGMCC 2.399, RPMI-1640; 48 h, 30 °C): 8 µM
CC[C@H](C)[C@@H]1NC(=O)[C@@H]([C@@H](C)O)NC(=O)CNC(=O)[C@H](CC(=O)O)NC(=O)CNC(=O)[C@H](CC(=O)O)NC(=O)CNC(=O)[C@H]2CCCCN2C(=O)[C@@H](NC(=O)[C@H](CC(=O)O)NC(=O)/C=C/CCCCCCCCCC(C)C)CNC(=O)[C@@H]2CCCN2C1=O  MIC (Staphylococcus aureus; broth microdilution; VISA LIM strain 2, Mueller-Hinton broth, Mg2+ 10 mg/L; 16 h, with: Ca2+ 5 mM): 4 µg/mL
C[N+]1=C2C(c3ccc([N+](=O)[O-])cc3)=[N+]([O-])c3ccccc3N2CCC1  MIC (Bacteroides spp. and Parabacteroides distasonis): 0.25 to 2 µg/mL
CCCCCCCCCC(=O)NCCCC[C@H](NC(=O)CCCCCCCCC)C(=O)N[C@@H](CCCCNC(=O)CCCCCCCCC)C(=O)NCC(=O)NCC(=O)NCC(=O)N[C@@H](CS)C(=O)N[C@@H](CCCNC(=N)N)C(=O)N[C@@H](CCCCN)C(=O)N1CCC[C@H]1C(=O)N[C@@H](CS)C(=O)N[C@@H](CCCNC(=N)N)C(=O)N[C@@H](CCCCN)C(=O)N1CCC[C@H]1C(N)=O  MIC (Candida parapsilosis; broth microdilution; CGMCC 2.399, RPMI-1640; 48 h, 30 °C): 32 µM
CC(C)CCCCCCCCC/C=C/C(=O)N[C@@H](CC(=O)O)C(=O)N[C@H]1CNC(=O)[C@@H]2CCCN2C(=O)[C@H](C(C)C)NC(=O)[C@@H](CN)NC(=O)CNC(=O)[C@H](CC(=O)O)NC(=O)CNC(=O)[C@H](CC(=O)O)NC(=O)[C@H](CC(=O)O)NC(=O)[C@H]2CCCCN2C1=O  MIC (Enterococcus; broth microdilution; VRE 155, Mueller-Hinton broth, Mg2+ 10 mg/L; 16 h, with: Ca2+ 5 mM): 1 µg/mL

A few entries again:
[O-][N+]1=C(c2ccccc2)C2=NCCCN2c2ncccc21  MIC (Bacteroides spp. and Parabacteroides distasonis): 0.06 to 0.125 µg/mL
CCCCCC(=O)NCCCC[C@H](NC(=O)CCCCC)C(=O)N[C@@H](CCCCNC(=O)CCCCC)C(=O)NCC(=O)NCC(=O)NCC(=O)N[C@@H](CS)C(=O)N[C@@H](CCCNC(=N)N)C(=O)N[C@@H](CCCCN)C(=O)N1CCC[C@H]1C(=O)N[C@@H](CS)C(=O)N[C@@H](CCCNC(=N)N)C(=O)N[C@@H](CCCCN)C(=O)N1CCC[C@H]1C(N)=O  MIC (Candida parapsilosis; broth microdilution; CGMCC 2.399, RPMI-1640; 48 h, 30 °C): 8 µM
COc1ccc(C2=[N+]([O-])c3ccccc3N3CCN=C23)cc1  MIC (Bacteroides spp. and Parabacteroides distasonis): 0.06 to 0.125 µg/mL
[O-][N+]1=C(c2ccsc2)C2=NCCCN2c2ccccc21  MIC (Bacteroides spp. and Parabacteroides distasonis): 0.25 to 1 µg/mL
